Results collected from several papers.
Protocols differ between the studies behind these lines.

C[C@]1(O)C[C@@](N)(c2ccc(-c3nc4n(c3-c3ccccc3)COc3ccncc3-4)cc2)C1
patients with serious adverse event (human, advanced or metastatic solid tumours; dose not given, intermittent dose escalation total): 42.9%

C=CC(=O)Nc1cc(Nc2nccc(Nc3cc(Cl)c(F)cc3C(C)(C)O)n2)c(OC)cc1N1CC[C@@H](N(C)C)C1
patients with mouth ulceration (human patients; oral, 100 mg, treatment-emergent adverse events): 11.1%

O=C1Nc2cc3[nH]nc(-c4ccncc4)c3cc2CN1Cc1ccccc1
patients with subretinal fluid (CTCAE v4.03; human, relapsed or refractory advanced solid tumours; intravenous, 0.45 mg/kg, pooled schedules): 0%

Cc1cn([C@H]2O[C@@H](CO[P@@](=O)(N[C@@H](C)C(=O)OC(C)C)Oc3ccccc3)[C@H](O)[C@H]2F)c(=O)[nH]c1=O
patients with any TEAE (human; oral, 50 mg once daily, 28 days): 67%

C[C@@H]1OC(=O)NN=C1c1ccc(-c2ccc(F)cc2)c(C(F)(F)F)c1
patients with adverse event (phase I trial, item: Presyncope worst grade 2; human patients; dose not given, all dose groups): 20%

CN[C@@H](C)C(=O)N[C@H]1CN(S(=O)(=O)c2cccc(S(=O)(=O)N3CC[C@H]4CC[C@@H](C(=O)NC(c5ccccc5)c5ccccc5)N4C(=O)[C@@H](NC(=O)[C@H](C)NC)C3)c2)CC[C@H]2CC[C@@H](C(=O)NC(c3ccccc3)c3ccccc3)N2C1=O
patients with any TRAE (human, advanced solid tumours; intravenous, 7 mg weekly, CTCAE version 4.0): 0%

Cn1nc(NS(C)(=O)=O)c2c(Cl)ccc(-n3c([C@H](Cc4cc(F)cc(F)c4)NC(=O)Cn4nc(C(F)F)c5c4C(F)(F)[C@@H]4C[C@H]54)nc4nc(OCCC(F)(F)F)ccc4c3=O)c21
patients with laboratory abnormality (item: LDL cholesterol grade 1 increase; human; 200 mg once daily, powder in bottle): 17%

COc1ncnn2ccc(-c3cnc4nc(C)n(Cc5nnc([C@@H](C)F)o5)c4c3)c12
patients with fatigue (human; oral, dose not given, grade 3): 0%

A few entries again:
COc1ncnn2ccc(-c3cnc4nc(C)n(Cc5nnc([C@@H](C)F)o5)c4c3)c12
patients with fatigue (human; oral, dose not given, grade 3): 0%
